Published values collected from several papers.
Each line is one published result; not all experiments were run side by side. Values joined by “and” are separate records of one study, mostly repeats; a detail may differ. Non-standard residues stand in square brackets, D forms with d. Square brackets hold non-standard residues; d marks the D form. Primed or numbered codes have the meaning given here. Ends that are not written are not given here. No end group written: not given here.
MMP1: MMP1 100-269 (Homo sapiens, UniProt P03956)
UniProt P03956, sequence (whole entry, looked up): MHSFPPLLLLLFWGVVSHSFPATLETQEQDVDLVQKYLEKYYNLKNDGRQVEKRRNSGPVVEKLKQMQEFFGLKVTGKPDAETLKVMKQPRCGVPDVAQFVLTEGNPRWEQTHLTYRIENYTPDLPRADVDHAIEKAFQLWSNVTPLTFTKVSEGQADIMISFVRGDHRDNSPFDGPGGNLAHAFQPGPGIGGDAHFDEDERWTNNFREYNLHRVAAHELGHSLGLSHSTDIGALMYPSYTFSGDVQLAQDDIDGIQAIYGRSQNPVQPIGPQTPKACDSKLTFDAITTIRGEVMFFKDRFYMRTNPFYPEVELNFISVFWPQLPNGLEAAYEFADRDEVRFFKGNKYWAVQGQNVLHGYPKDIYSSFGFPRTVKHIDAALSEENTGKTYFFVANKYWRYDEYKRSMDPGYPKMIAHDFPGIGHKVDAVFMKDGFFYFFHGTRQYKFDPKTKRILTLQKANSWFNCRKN
B1: TXN2 mature (Homo sapiens, UniProt Q99757); sequence looked up; chain TTFNIQDGPDFQDRVVNSETPVVVDFHAQWCGPCKILGPRLEKMVAKQHGKVVMAKVDIDDHTDLAIEYEVSAVPTVLAMKNGDVVDKFVGIKDEDQLEAFLKKLIG
B2: TIF4631 572-853 K590R (Saccharomyces cerevisiae, UniProt P39935); sequence looked up; chain LVPSANRWVPKFKSKKTERKLAPDGKTELLDKDEVERKMKSLLNKLTLEMFDAISSEILAIANISVWETNGETLKAVIEQIFLKACDEPHWSSMYAQLCGKVVKELNPDITDETNEGKTGPKLVLHYLVARCHAEFDKGWTDKLPTNEDGTPLEPEMMSEEYYAAASAKRRGLGLVRFIGFLYRLNLLTGKMMFECFRRLMKDLTDSPSEETLESVVELLNTVGEQFETDSFRTGQATLEGSQLLDSLFGILDNIIQTAKISSRIKFKLIDIKELRHDKNWN
B3: Cnpy2 (Mus musculus, UniProt Q9QXT0); sequence looked up; chain RRSQDLHCGACRALVDELEWEIARVDPKKTIQMGSFRINPDGSQSVVEVPYARSEAHLTELLEEVCDRMKEYGEQIDPSTHRKNYVRVVSRNGESSELDLQGIRIDSDISGTLKFACESIVEEYEDELIEFFSREADNVKDKLCSKRTDLCDHALHRSHDEL
B4: HP 162-406 (Homo sapiens, UniProt P00738); sequence looked up; chain ILGGHLDAKGSFPWQAKMVSHHNLTTGATLINEQWLLTTAKNLFLNHSENATAKDIAPTLTLYVGKKQLVEIEKVVLHPNYSQVDIGLIKLKQKVSVNERVMPICLPSKDYAEVGRVGYVSGWGRNANFKFTDHLKYVMLPVADQDQCIRHYEGSTVPEKKTPKSPVGVQPILNEHTFCAGMSKYQEDTCYGDAGSAFAVHDLEEDTWYATGILSFDKSCAVAEYGVYVKVTSIQDWVQKTIAEN
B5: TIMP3 24-144 (Homo sapiens, UniProt P35625); sequence looked up; chain CTCSPSHPQDAFCNSDIVIRAKVVGKKLVKEGPFGTLVYTIKQMKMYRGFTKMPHVQYIHTEASESLCGLKLEVNKYQYLLTGRVYDGKMYTGLCNFVERWDQLTLSQRKGLNYRYHLGCN
B6: DKK1 183-266 (Homo sapiens, UniProt O94907); sequence looked up; chain GQEGSVCLRSSDCASGLCCARHFWSKICKPVLKEGQVCTKHRRKGSHGLEIFQRCYCGEGLSCRIQKDHHQASNSSRLHTCQRH
B7: Mesd (Mus musculus, UniProt Q9ERE7); chain ADTPGEATPPPRKKKDIRDYNDADMARLLEQWEKDDDIEEGDLPEHKRPSAPIDFSKLDPGKPESILKMTKKGKTLMMFVTVSGNPTEKETEEITSLWQGSLFNANYDVQRFIVGSDRAIFMLRDGSYAWEIKDFLVSQDRCAEVTLEGQMYPGKGGGSKEKNKTKPEKAKKKEGDPKPRASKEDNRAGSRREDL
B8: UGT1A9 (Homo sapiens, UniProt O60656); chain GKLLVVPMDGSHWFTMRSVVEKLILRGHEVVVVMPEVSWQLGRSLNCTVKTYSTSYTLEDLDREFKAFAHAQWKAQVRSIYSLLMGSYNDIFDLFFSNCRSLFKDKKLVEYLKESSFDAVFLDPFDNCGLIVAKYFSLPSVVFARGILCHYLEEGAQCPAPLSYVPRILLGFSDAMTFKERVRNHIMHLEEHLLCHRFFKNALEIASEILQTPVTEYDLYSHTSIWLLRTDFVLDYPKPVMPNMIFIGGINCHQGKPLPMEFEAYINASGEHGIVVFSLGSMVSEIPEKKAMAIADALGKIPQTVLWRYTGTRPSNLANNTILVKWLPQNDLLGHPMTRAFITHAGSHGVYESICNGVPMVMMPLFGDQMDNAKRMETKGAGVTLNVLEMTSEDLENALKAVINDKSYKENIMRLSSLHKDRPVEPLDLAVFWVEFVMRHKGAPHLRPAAHDLTWYQYHSLDVIGFLLAVVLTVAFITFKCCAYGYRKCLGKKGRVKKAHKSKTH
B9: adcC/mCherry full length, C-terminal mCherry (Dictyostelium discoideum); sequence looked up; chain MTQRSLKINIIEGKDLKGLDSGGVSDCYVKFKCGPISAKTEVIKKSTSPIWNYMINIGNVEENTLLQFECFDWERIGNNRTMGKTQAFVSDLSSGAKRNLMDQWLRLDTKGFIRISYEFTPPYPLETESTNSPNLSVVGNGSSSSSSLMYNPTPVYFKPIFLPTIPSETINNNKSTTCHFLIPGSVYQTRPFVCGEFVNCSLVLNVFEARIVVRSLNLSFSGSITYKGKKQRKLVNDYRDLLLGFTGGVPVPNNNGNNNLTSNKVVLERGKHVFPFQFFIDKTCKSTVNLTDYKVNYYLSFHADIVNQPDISASQEIKVVNLEDTVYKQTISPINAQTSKSPLTGGNISISCKSVKNSFYPGEEIELEVEVNNSSKKKIKNVDIQLNKVEYDGTDVTGTSYQLLTMTKKFYPKIKQNTACKQMVVIELPSTTQCVGLIHSIAETKMIRVEYHLLVNLDIPSCVDLRLKLPITIVQPDPKFETLPNPLTEIGNLPRYVKDWSIKNFHSWVLFKKQCPDVMALNPEFYQYNLSGSDLMQLPTETLYSIFKGAGPRTQELVNDLQSQIFEIKLVRNFLKELQLSNLIDYFEKQTITWDILLQLNYNEIFSITDITIGDAKRIFLKIQQIQSERQKQQEQQEQQVVSNLEAVSLQKSE
UniProt P11532, sequence (whole entry, looked up): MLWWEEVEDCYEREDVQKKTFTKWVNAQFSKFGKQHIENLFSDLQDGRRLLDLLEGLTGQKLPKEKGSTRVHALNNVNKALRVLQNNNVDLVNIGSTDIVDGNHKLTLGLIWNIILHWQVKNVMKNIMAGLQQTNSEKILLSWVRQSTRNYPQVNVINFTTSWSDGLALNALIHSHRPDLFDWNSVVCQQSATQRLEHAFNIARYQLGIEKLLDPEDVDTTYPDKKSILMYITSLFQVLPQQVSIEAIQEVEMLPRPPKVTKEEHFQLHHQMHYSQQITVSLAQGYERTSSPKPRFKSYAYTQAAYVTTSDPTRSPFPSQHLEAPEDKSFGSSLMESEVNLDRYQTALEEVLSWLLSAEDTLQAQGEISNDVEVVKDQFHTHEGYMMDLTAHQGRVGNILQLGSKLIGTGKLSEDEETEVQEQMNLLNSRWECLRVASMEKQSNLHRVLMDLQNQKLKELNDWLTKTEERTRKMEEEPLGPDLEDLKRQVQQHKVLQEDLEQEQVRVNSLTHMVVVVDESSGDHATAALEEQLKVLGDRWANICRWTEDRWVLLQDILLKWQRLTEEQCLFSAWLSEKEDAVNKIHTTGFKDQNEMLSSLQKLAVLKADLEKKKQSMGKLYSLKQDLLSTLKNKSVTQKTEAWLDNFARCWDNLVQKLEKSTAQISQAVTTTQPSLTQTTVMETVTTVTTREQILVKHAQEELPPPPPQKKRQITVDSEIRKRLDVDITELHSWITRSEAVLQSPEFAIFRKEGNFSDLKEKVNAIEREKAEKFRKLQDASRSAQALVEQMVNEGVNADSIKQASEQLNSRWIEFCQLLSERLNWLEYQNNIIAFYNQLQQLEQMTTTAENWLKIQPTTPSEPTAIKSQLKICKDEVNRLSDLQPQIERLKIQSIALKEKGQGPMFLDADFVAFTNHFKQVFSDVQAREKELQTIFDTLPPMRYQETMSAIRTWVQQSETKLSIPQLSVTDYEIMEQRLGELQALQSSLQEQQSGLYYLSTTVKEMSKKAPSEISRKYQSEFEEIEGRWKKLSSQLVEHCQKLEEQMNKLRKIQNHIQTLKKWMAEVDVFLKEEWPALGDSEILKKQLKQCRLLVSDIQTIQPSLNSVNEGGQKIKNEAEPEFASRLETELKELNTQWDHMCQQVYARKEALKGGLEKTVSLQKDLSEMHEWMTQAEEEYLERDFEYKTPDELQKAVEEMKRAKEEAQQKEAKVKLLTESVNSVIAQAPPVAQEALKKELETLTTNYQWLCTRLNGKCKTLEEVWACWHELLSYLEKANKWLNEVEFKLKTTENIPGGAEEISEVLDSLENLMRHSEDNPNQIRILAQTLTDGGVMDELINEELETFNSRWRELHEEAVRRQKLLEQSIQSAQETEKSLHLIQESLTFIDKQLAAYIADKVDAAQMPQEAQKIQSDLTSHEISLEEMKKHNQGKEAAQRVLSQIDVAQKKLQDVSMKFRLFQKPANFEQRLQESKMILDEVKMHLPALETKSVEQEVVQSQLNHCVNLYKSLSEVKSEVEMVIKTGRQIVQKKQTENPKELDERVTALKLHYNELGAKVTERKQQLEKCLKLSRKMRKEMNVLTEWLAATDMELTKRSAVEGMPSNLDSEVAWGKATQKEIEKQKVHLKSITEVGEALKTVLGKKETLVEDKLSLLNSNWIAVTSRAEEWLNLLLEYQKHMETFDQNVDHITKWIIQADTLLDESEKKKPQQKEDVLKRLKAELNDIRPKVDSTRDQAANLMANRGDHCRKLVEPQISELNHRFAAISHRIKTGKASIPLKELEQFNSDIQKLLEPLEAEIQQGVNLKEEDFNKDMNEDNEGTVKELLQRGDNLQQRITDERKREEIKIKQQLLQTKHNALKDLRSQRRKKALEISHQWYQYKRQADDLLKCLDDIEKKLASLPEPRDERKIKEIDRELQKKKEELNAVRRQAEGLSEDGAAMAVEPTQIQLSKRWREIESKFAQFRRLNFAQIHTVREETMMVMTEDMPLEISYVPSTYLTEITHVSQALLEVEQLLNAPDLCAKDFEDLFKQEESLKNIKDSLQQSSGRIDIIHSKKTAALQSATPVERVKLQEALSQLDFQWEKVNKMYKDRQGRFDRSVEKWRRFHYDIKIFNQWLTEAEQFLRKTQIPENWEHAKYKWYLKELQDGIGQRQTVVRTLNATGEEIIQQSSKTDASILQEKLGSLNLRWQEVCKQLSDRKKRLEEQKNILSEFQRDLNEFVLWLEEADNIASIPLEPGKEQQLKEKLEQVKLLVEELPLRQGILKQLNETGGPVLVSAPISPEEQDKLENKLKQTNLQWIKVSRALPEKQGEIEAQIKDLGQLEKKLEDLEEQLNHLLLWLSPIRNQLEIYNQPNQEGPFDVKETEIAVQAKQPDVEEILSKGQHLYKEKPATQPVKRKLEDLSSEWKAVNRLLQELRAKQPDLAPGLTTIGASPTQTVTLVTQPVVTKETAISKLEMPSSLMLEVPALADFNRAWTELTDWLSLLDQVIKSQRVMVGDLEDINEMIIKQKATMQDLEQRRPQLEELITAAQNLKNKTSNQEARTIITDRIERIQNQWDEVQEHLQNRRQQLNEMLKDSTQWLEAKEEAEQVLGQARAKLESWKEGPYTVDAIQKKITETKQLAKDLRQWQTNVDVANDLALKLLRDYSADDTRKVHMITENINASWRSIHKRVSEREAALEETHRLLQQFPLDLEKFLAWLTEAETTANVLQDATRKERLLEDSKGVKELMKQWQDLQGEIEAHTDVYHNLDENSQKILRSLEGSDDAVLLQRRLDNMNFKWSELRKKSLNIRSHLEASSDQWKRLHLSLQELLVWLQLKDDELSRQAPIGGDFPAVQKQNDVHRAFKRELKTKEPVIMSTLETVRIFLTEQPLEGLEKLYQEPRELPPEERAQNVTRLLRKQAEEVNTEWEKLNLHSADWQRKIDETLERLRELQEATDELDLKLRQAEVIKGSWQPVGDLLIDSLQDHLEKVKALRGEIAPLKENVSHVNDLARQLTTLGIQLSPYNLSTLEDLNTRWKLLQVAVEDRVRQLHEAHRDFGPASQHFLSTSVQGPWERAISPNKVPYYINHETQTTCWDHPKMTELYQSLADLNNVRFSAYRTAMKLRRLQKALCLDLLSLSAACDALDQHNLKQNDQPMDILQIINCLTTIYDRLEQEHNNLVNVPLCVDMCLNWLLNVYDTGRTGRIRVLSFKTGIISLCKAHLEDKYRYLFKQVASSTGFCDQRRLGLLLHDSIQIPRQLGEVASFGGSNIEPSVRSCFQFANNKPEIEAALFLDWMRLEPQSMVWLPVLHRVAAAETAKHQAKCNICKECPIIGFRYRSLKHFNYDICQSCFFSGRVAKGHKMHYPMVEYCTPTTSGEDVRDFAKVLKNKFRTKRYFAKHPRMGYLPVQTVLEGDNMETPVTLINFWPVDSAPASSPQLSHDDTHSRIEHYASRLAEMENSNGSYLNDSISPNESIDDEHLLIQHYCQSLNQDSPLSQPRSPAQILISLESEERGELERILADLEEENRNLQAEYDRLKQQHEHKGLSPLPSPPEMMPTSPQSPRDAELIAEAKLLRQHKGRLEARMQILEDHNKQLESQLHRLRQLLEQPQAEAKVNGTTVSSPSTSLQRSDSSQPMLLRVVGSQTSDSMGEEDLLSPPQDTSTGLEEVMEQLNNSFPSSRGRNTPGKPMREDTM
UniProt P09429, sequence (whole entry, looked up): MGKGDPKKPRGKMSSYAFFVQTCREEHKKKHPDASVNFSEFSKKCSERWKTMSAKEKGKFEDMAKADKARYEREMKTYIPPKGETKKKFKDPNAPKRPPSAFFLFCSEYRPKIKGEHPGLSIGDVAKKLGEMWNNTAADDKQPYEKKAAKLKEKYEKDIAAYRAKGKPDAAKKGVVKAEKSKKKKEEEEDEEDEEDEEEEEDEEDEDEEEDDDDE
UniProt P13773, sequence (whole entry, looked up): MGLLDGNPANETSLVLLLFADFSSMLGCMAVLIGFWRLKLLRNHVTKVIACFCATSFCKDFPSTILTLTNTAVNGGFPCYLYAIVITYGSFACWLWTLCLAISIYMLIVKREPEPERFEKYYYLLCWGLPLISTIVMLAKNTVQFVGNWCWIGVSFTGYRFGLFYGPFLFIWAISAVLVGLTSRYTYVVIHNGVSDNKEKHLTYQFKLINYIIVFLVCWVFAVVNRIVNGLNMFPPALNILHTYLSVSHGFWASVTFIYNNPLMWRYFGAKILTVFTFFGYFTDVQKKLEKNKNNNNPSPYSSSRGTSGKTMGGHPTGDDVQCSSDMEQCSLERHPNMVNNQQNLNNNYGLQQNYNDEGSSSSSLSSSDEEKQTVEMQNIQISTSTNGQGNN
UniProt P35343, sequence (whole entry, looked up): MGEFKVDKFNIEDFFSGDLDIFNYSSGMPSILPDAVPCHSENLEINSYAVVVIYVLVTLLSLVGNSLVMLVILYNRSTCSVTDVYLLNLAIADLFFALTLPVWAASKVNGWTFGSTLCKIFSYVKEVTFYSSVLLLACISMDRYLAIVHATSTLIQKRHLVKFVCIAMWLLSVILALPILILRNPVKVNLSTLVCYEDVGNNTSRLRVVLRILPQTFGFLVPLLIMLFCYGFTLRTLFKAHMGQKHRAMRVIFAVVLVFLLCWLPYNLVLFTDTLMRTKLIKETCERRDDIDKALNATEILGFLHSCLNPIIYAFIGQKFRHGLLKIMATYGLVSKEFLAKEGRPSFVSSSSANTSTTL

Molecule	target or system	test	test system	conditions	scale	measurement	result
IDEYFSEQPLKNLLLSTSAAQIEKCFIIENISTIA (IFNAR1 478-512 E496A/E497A (Homo sapiens, UniProt P17181))	TYK2 23-583 (Homo sapiens, UniProt P29597)	differential scanning fluorimetry	peptide			apparent Tm reduction	> 5 °C
B1 (TXN2 mature)	MAP3K5 (Homo sapiens, UniProt Q99683)	co-IP	HLE B3	without H2O2, in cells	baseline: vector cells, lower = less Trx2 bound	Trx2/ASK1 ratio decrease	20%
TIMP2 N-terminal domain S4E/V6R/V18M/I35V/N38Q/S68N/V71N/H97R	MMP1	fluorogenic substrate cleavage, inhibitor, enzyme inhibition assay		apparent		Ki	0.78 nM
B2 (TIF4631 572-853 K590R)	TIF1 E43R/Q186C/G370C, Alexa488/Alexa546 labels (Saccharomyces cerevisiae, UniProt P10081)	conformation of molecule, smFRET				binding	binds
B3 (Cnpy2)	Eif2ak3 (Mus musculus, UniProt Q9Z2B5)	kinase activity, activator			baseline: without CNPY2, higher = more phosphorylation	phosphorylation	2 fold
B4 (HP 162-406)	HMGB1, disulfide form (UniProt P09429)	HMGB1-induced TNF release, inhibitor	RAW			EC50	10 µg/mL
CCND1/CDK6 fusion, linker (Homo sapiens)	RB1 F897A/L901A/R908A (Homo sapiens, UniProt P06400)	in vitro kinase assay			baseline: wild-type Rb, higher = greater difference	Rb phosphorylation	17 fold
Kcnab1 (Rattus norvegicus, UniProt P63144)	Kcna1 (Rattus norvegicus, UniProt P10499)	inside-out patch electrophysiology		added: cortisone 500 µM	higher = more inactivation relief	steady-state current increase	84%
ANGPT1 (Homo sapiens, UniProt Q15389)	TEK whole (Homo sapiens, UniProt Q02763)	staurosporine-induced apoptosis, Cell Death Detection ELISA	human myogenic precursor cells	500 ng/mL		protection from apoptosis	51%
SERPINA1 S313C, Texas Red, Alexa Fluor 488	trypsin (Bos taurus)	trypsin inhibition				stoichiometry of inhibition	1.1
KVAK[pS]PKKAKAW (H1-5 168-178 (Homo sapiens); pS172; pS = N[C@@H](COP(=O)(O)O)C(=O)O)	PIN1 51-163 (Homo sapiens, UniProt Q13526)	EXSY NMR	peptide	1 mM peptide, 25 °C		exchange rate constant	5.8 s⁻¹
B5 (TIMP3 24-144)	MMP1	inhibitor, steady-state kinetics		1 h, 37 °C, apparent, tight-binding fit		Ki	0.9 nM
B6 (DKK1 183-266)	LRP6 630-1244 (Homo sapiens, UniProt O75581)	SEC, dynamic light scattering				molecule per partner	1
Ac-SSEVNA-NH2 (PLCB3 residues 581-586, N-acetyl, C-amide (Homo sapiens); N-acetyl, C-amide)	PLCB3 (Homo sapiens, UniProt Q01970)	ACh-induced Ca2+ transient	peptide, HEK293	100 µM, 1 h, added: ACh 1 µM	baseline: vehicle, higher = stronger inhibition	inhibition	52%
FGF2 (Homo sapiens, UniProt P09038)	FGFR3 isoform IIIc (unknown, UniProt Q61851)	cell proliferation, MTT	BaF3-FGFR3c	20 nM, 48 h, added: heparan sulfate 4.9 µg/mL	baseline: FGF 1 with heparin, higher = more proliferation	cell proliferation	48%
B7 (Mesd)	LRP6 (Homo sapiens, UniProt O75581)	Matrigel invasion assay	MDA-MB-231, BT549	2 µM, 4 µM		invasion inhibition	60 % inhibition
CANX (Canis lupus familiaris, UniProt P24643)	ATP1B2 (Homo sapiens, UniProt P14415)	co-IP	MDCK, lysate	pH 7.5, 4 °C, NaCl 150 mM	baseline: YFP-β1, higher = more calnexin coprecipitated	relative coprecipitation	6.3 fold
DTNA alpha-dystrobrevin-1	DMD 2980-3685 (Homo sapiens, UniProt P11532)	co-IP	reticulocyte lysate	not purified	baseline: control without antibody, higher = more co-precipitation	co-IP signal	2.2 fold and 3 fold and 2.7 fold and 3.3 fold
IL2 V91R (Homo sapiens)	IL2RB (Homo sapiens, UniProt P14784)	flow cytometry	human PBMCs		baseline: wildtype IL2, higher = greater reduction	pSTAT5+ CD8 T cells	100 fold
B8 (UGT1A9)	Cc1ccc(O)cc1	steady-state kinetics		pH 7.4, 37 °C		Vmax/Km	25 µL/min/mg
B9	carA-1 (Dictyostelium discoideum, UniProt P13773)	co-IP	membrane fractions	in cells, added: cAMP 0 or 50 µM	baseline: unstimulated cells, higher = more co-precipitated	co-precipitation increase	2.5 fold
{Cy5.5(3)}-TNYLFSPNGPIARAW (peptide; N-terminal Cy5.5; Cy5.5(3) = Cy5.5 fluorescent dye)	EPHB4 16-539 (Homo sapiens, UniProt P54760)	SPR	peptide			koff	0.00528 s⁻¹
CALM1 T26C, Alexa Fluor 568 at C26 (sequence not shown)	Camk2d T287A (Rattus norvegicus)	FRET		100 nM	baseline: initial value, lower = more quenching	donor fluorescence intensity	60%
Cxcl2 dimer T27C, disulfide across dimer interface (Mus musculus)	Cxcr2 (Mus musculus, UniProt P35343)	Ca2+ release, agonist, FLIPR	mouse bone marrow neutrophils	disulfide-trapped dimer		EC50	176 nM
DLAT L2 domain, lipoylated	Pdk2 T302A (Rattus norvegicus)	ITC		30 °C, single-site, no nucleotide		ΔH	-21.7 kcal/mol
cpSRP43 substrate-binding domain (Arabidopsis thaliana)	CHLH mature (Oryza sativa, UniProt Q10M50)	heat-induced aggregation, light scattering			baseline: cpSRP43-FL, higher = weaker chaperone activity	chaperone activity	> 20 fold lower
ITGB1 whole (Gallus gallus, UniProt P07228)	laminin (Mus musculus, UniProt P19137)	neuron attachment	E8 CG neurons	added: JG22 50 µg/mL	baseline: poly-D-lysine, higher = more attachment	attachment	4%
ETDKE[pY][pY]TVKD (JAK1 1029-1039; pY1034/pY1035; pY = N[C@@H](Cc1ccc(OP(=O)(O)O)cc1)C(=O)O)	PTPN6 243-530 Q252R/C453S (Homo sapiens, UniProt P29350)	ITC	peptide	pH 8.0, 25 °C, NaCl 100 mM		molecule per partner	0.9
CYCS mature (Equus caballus, UniProt P00004)	sorT mature (Sinorhizobium meliloti)	steady-state kinetics		pH 8.0, added: cytochrome as electron acceptor		sulfite dehydrogenase activity	7.4 U/mg

Repeated from above:
Molecule	target or system	test	test system	conditions	scale	measurement	result
CYCS mature (Equus caballus, UniProt P00004)	sorT mature (Sinorhizobium meliloti)	steady-state kinetics		pH 8.0, added: cytochrome as electron acceptor		sulfite dehydrogenase activity	7.4 U/mg
ETDKE[pY][pY]TVKD (JAK1 1029-1039; pY1034/pY1035; pY = N[C@@H](Cc1ccc(OP(=O)(O)O)cc1)C(=O)O)	PTPN6 243-530 Q252R/C453S (Homo sapiens, UniProt P29350)	ITC	peptide	pH 8.0, 25 °C, NaCl 100 mM		molecule per partner	0.9
Cxcl2 dimer T27C, disulfide across dimer interface (Mus musculus)	Cxcr2 (Mus musculus, UniProt P35343)	Ca2+ release, agonist, FLIPR	mouse bone marrow neutrophils	disulfide-trapped dimer		EC50	176 nM
cpSRP43 substrate-binding domain (Arabidopsis thaliana)	CHLH mature (Oryza sativa, UniProt Q10M50)	heat-induced aggregation, light scattering			baseline: cpSRP43-FL, higher = weaker chaperone activity	chaperone activity	> 20 fold lower
B4 (HP 162-406)	HMGB1, disulfide form (UniProt P09429)	HMGB1-induced TNF release, inhibitor	RAW			EC50	10 µg/mL
